{"data": "Values quoted from earlier work that unrelated publications cite", "note": "Numbers after ± are the reported error."}
{"Structure (SMILES)": "C[C@H]1COCCN1c1nc(-c2cnc(N)cc2C(F)F)nc(N2CCOCC2)n1", "tested on": "DLD-1", "quantity": "GI50", "result": "538 nM"}
{"Structure (SMILES)": "CNC(C)C1CCC(N)C(OC2C(N)CC(N)C(OC3OCC(C)(O)C(NC)C3O)C2O)O1 (stereo not drawn)", "tested on": "Klebsiella pneumoniae", "test system": "clinical isolate RKI-No_908/15", "quantity": "MIC", "result": "> 8 µg/mL"}
{"Structure (SMILES)": "COCCOc1nc(C(F)(F)F)ccc1CNC(=O)Nc1cccc2[nH]ncc12", "tested on": "TRPV1", "assay": "calcium flux, antagonist", "test system": "HEK293", "setting": "added: capsaicin", "quantity": "IC50", "result": "18 nM"}
{"Structure (SMILES)": "COc1ccccc1Oc1cccc(CN2CCC(NC(=O)C(CCN3CCCC3)c3ccccc3)CC2)c1 (stereo not drawn)", "tested on": "human CCR8 H283A mutant (TM7)", "assay": "IP accumulation, agonist", "quantity": "EC50", "result": "17 nM"}
{"Structure (SMILES)": "Cc1cnc(N2CC3(CCOCC3)C2)c(C(=O)Nc2ccc(C(=O)N3CCc4cc(C(=O)Nc5c(C)cccc5F)sc4-c4ccccc43)cc2)c1", "tested on": "respiratory syncytial virus", "assay": "cytopathic effect", "test system": "A2", "quantity": "IC90", "result": "0.000451 µg/mL"}
{"Structure (SMILES)": "CC1(C)S[C@@H]2[C@H](NC(=O)[C@H](N)c3ccccc3)C(=O)N2[C@H]1C(=O)O", "tested on": "Pseudomonas aeruginosa", "test system": "clinical isolate RKI-No_462/13", "quantity": "MIC", "result": "> 16 µg/mL"}
{"Structure (SMILES)": "COc1ccccc1Oc1cccc(CN2CCC(NC(=O)C3CC(=O)Nc4ccccc43)CC2)c1 (stereo not drawn)", "tested on": "human CCR8 F290A mutant (TM7)", "assay": "IP accumulation, agonist", "quantity": "EC50", "result": "29 nM"}
{"Structure (SMILES)": "COc1ccc(CC2c3ccc(OC)cc3CCC2NC(=O)Nc2cccc3cnccc23)cc1 (stereo not drawn)", "tested on": "TRPV1", "assay": "calcium flux, antagonist", "test system": "HEK293", "setting": "added: capsaicin", "quantity": "IC50", "result": "36 nM"}
{"Structure (SMILES)": "Nc1cc(C(F)(F)F)c(-c2nc(N3CCOCC3)nc(N3CCOCC3)n2)cn1", "tested on": "U-2 OS", "quantity": "GI50", "result": "536 nM"}
{"Structure (SMILES)": "O=C(NCCc1cccc(C(F)(F)F)c1)Nc1cccc2cnccc12", "tested on": "TRPV1", "assay": "calcium flux, antagonist", "test system": "HEK293", "setting": "added: capsaicin", "quantity": "IC50", "result": "19 nM"}
{"Structure (SMILES)": "CCNS(=O)(=O)c1ccc(OC)cc1C1(O)CCN(Cc2cccc(Oc3ccccc3OC)c2)CC1", "tested on": "human CCR8 K195A mutant (TM5)", "assay": "IP accumulation, agonist", "quantity": "EC50", "result": "12 nM"}
{"Structure (SMILES)": "CC(C)CN1CCN(c2nc3c(c(Nc4ccc(C(F)(F)F)cc4)n2)CCN(c2ncccc2C(F)(F)F)CC3)CC1", "tested on": "TRPV1", "assay": "calcium flux, antagonist", "test system": "HEK293", "setting": "added: capsaicin", "quantity": "IC50", "result": "11 nM"}
{"Structure (SMILES)": "Cc1c(C#N)cccc1[C@@H](C)Nc1nnc(C)c2cnc(N3CCOCC3)cc12", "tested on": "DLD-1", "assay": "3D cell viability", "setting": "14 d", "quantity": "IC50", "result": "197 ± 156 nM"}
{"Structure (SMILES)": "COc1ccccc1Oc1cccc(CN2CCC3(CC2)C(=O)NCN3CCc2ccccc2)c1", "tested on": "human CCR8 L258A mutant (TM6)", "assay": "IP accumulation, agonist", "quantity": "EC50", "result": "13 nM"}
{"Structure (SMILES)": "FC(F)(F)c1ccc(Nc2ncnc3sc(Nc4c(Cl)cccc4Cl)nc23)cc1", "tested on": "TRPV1", "assay": "calcium flux, antagonist", "test system": "HEK293", "setting": "added: capsaicin", "quantity": "IC50", "result": "12 nM"}
{"note": "Some of these lines once more:"}
{"Structure (SMILES)": "FC(F)(F)c1ccc(Nc2ncnc3sc(Nc4c(Cl)cccc4Cl)nc23)cc1", "tested on": "TRPV1", "assay": "calcium flux, antagonist", "test system": "HEK293", "setting": "added: capsaicin", "quantity": "IC50", "result": "12 nM"}
